Measurements of several laboratories.
Compare with care: the assays were run in different laboratories. ± marks the error that the study gave.

CCCCCC(O)/C=C/C=O (stereo not shown)  isoTOP-ABPP ratio (hippocalcin (human); IA-probe cysteine labelling, covalent modifier, competitive isoTOP-ABPP; proteome, soluble, MDA-MB-231; 100 µM, 60 min, in vitro; reference: DMSO over compound, higher = stronger blockade): 1.9
CC[C@H](C)[C@H](NC(=O)[C@@H]1CCCN1C(=O)[C@@H](NC(=O)[C@H](C)N)C(C)C)C(=O)N[C@@H](C)C(=O)N[C@@H](CCC(N)=O)C(=O)N[C@@H](CCCCN)C(=O)N[C@@H](CO)C(=O)N[C@@H](CCC(=O)O)C(=O)N1CCC[C@H]1C(=O)N[C@@H](Cc1ccccc1)C(=O)N[C@@H](CCCCN)C(=O)N[C@@H](CCCCN)C(=O)N[C@@H](CCCCN)C(=O)N[C@@H](CCCCNC(=O)CCCCCNC(=S)Nc1ccc2c(c1)C(=O)OC21c2ccc(O)cc2Oc2cc(O)ccc21)C(N)=O  log2 fold change (BIRC2 (human); concentration not given, 100-fold competition; reference: no competitor): 4.98
C=CC(=O)N1[C@@H](c2ccc3c(c2)OCO3)c2[nH]c3ccccc3c2C[C@H]1C(=O)N1CCN(C)CC1  relative co-enrichment (human cyclin E1 wild type-3xFLAG:CDK2; co-IP with TMT proteomics, item: HSPA8; concentration not given, P11142; reference: wild type DMSO): 103%
C#CCN1CCN(c2nc(N3CCC(CCOc4cc(-c5scnc5C)ccc4CNC(=O)[C@@H]4C[C@@H](O)CN4C(=O)[C@@H](NC(=O)C4(F)CC4)C(C)(C)C)CC3)nc(N3CCN(C(=O)C4CC4)C3)n2)CC1=O  cooperativity alpha (BRD9 and VHL-elongin C-elongin B; SPR; immobilized BRD9; reference: binary KD over ternary KD): 0.58
C=CC(=O)Nc1cccc(Cn2ncc3cnc(Nc4cnn(CCOC)c4)nc32)c1  percent of control (SRPK1 human; binding, KINOMEscan; 100 nM; lower = stronger binding): 11%
Fc1ccc(Nc2nc(NC3CCCCC3)c3ccccc3n2)cc1F  maximal inhibition (β2AR/β1AR ICL3 chimera; β-arrestin2 recruitment, antagonist, BRET; reference: isoprenaline maximal response): -4.2%
CCCCCCc1ccc(COC)cc1  average chemical shift perturbation (HBV core protein Cp149 dimer; solution NMR; 4 molar equivalents, pH 7.5, 295 K, average over eight residues; reference: apo Cp149 dimer): 0.031 ppm
O=S(=O)(NCc1ccncc1)c1ccc(C2CCCCC2)cc1  protein binding (PU.1 (human); biotin probe pulldown, item: PU.1; 500 µM; reference: DMSO): no effect
CCCCCCc1ccc2cc(OC)ccc2c1  average chemical shift perturbation (HBV core protein Cp149 dimer; solution NMR; 4 molar equivalents, pH 7.5, 295 K, average over eight residues; reference: apo Cp149 dimer): 0.009 ppm
Cc1ncc(CNc2nc(N3CC(CCOc4cc(-c5scnc5C)ccc4CNC(=O)[C@@H]4C[C@@H](O)CN4C(=O)[C@@H](NC(=O)C4(F)CC4)C(C)(C)C)C3)nc(N3CCC[C@H]3Cn3ccnn3)n2)c(N)n1  cooperativity alpha (BRD9 and VHL-elongin C-elongin B; SPR; immobilized BRD9; reference: binary KD over ternary KD): 4.8
CCCCC(=O)N(C)c1ccc(O)cc1  average chemical shift perturbation (HBV core protein Cp149 dimer; solution NMR; 4 molar equivalents, pH 7.5, 295 K, average over eight residues; reference: apo Cp149 dimer): 0.019 ppm
c1ccc(-c2n[nH]cc2-c2ccnc3ccccc23)nc1  log2 fold change (MKK2 (Candida albicans); kinase binding, MIB/MS competition; Candida albicans lysate; 1 µM; reference: DMSO): 0.01
CC(C)OCc1ccc(CO)cc1  average chemical shift perturbation (HBV core protein Cp149 dimer; solution NMR; 4 molar equivalents, pH 7.5, 295 K, average over eight residues; reference: apo Cp149 dimer): 0.021 ppm
Nc1ncc(-c2cc(-c3cnn(CC(F)(F)F)c3)ncc2F)nc1C(=O)NC1CNCC(F)C1 (stereo not shown)  remaining binding (CDK4-cyclinD1; KINOMEscan competition binding; 1 µM; reference: DMSO control): 100%
CCCCC(=O)N(Cc1ccccc1)c1ccc(OCc2ccccc2)cc1  average chemical shift perturbation (HBV core protein Cp149 dimer; solution NMR; 4 molar equivalents, pH 7.5, 295 K, average over eight residues; reference: apo Cp149 dimer): 0.015 ppm
Cc1cn(CC(=O)N(CC(=O)N[C@H]2COC[C@@H]2N(CC(=O)NCCOCCOCC(N)=O)C(=O)Cn2cnc3c(N)ncnc32)[C@H]2COC[C@@H]2NC(=O)CN(C(=O)Cn2cnc3c(N)ncnc32)[C@H]2COC[C@@H]2NC(=O)CN(C(=O)Cn2cnc3c(=O)[nH]c(N)nc32)[C@H]2COC[C@@H]2NC(=O)CN(C(=O)Cn2cc(C)c(=O)[nH]c2=O)[C@H]2COC[C@@H]2NC(=O)CN(C(=O)Cn2cnc3c(=O)[nH]c(N)nc32)[C@H]2COC[C@@H]2NC(=O)CN(C(=O)Cn2cc(C)c(=O)[nH]c2=O)[C@H]2COC[C@@H]2NC(=O)CN(C(=O)Cn2cnc3c(N)ncnc32)[C@H]2COC[C@@H]2NC(=O)CN(C(=O)Cn2cnc3c(=O)[nH]c(N)nc32)[C@H]2COC[C@@H]2N)c(=O)[nH]c1=O  Tm (complementary DNA; duplex formation, UV melting; PBS; 1 µM, pH 7.2): 76.97 ± 0.34 °C

For quick reference, copied from above:
CCCCC(=O)N(C)c1ccc(O)cc1  average chemical shift perturbation (HBV core protein Cp149 dimer; solution NMR; 4 molar equivalents, pH 7.5, 295 K, average over eight residues; reference: apo Cp149 dimer): 0.019 ppm
C=CC(=O)Nc1cccc(Cn2ncc3cnc(Nc4cnn(CCOC)c4)nc32)c1  percent of control (SRPK1 human; binding, KINOMEscan; 100 nM; lower = stronger binding): 11%
